# Assay results pooled from the literature.
# Numbered parts are unrelated; each lists some results of a single study. Substitutions count along the parent as printed.

# Sample 1 — method: DHFR PCA, deep sequencing; sample: yeast; together with: (+)-ABA 4.8 µM; baseline: wild-type fitted maximum; direction: higher = stronger binding
# Target: ABI1, truncated, D143A, DHFR fusion (Arabidopsis thaliana)
# Setting: methotrexate growth selection, single substitutions
# Starting sequence: PYL1, truncated, DHFR fusion (Arabidopsis thaliana); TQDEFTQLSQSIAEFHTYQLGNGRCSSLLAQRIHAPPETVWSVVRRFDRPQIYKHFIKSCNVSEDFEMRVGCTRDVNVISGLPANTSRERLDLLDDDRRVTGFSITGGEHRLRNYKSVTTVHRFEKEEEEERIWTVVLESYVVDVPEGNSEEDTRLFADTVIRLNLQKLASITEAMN
Variant,relative binding score [%]
F15A,17.7
R49C,71.1
P83R,11.9
R163G,37.6
E128M,67
T6L,69.7
T1W,69.3
V40E,-23
H122V,4.21
P146S,6.7
A170F,0.662
L28R,28

# Sample 2 — method: protein-binding microarray; molecule type: double-stranded DNA, one strand shown; sample: in vitro; tested at: 250 nM; setting: 60-bp whole probe; together with: salmon DNA 0.4 mg/ml; baseline: random background probes; direction: higher = stronger binding; all sequences stand within: GCCTAGCAC … GTCTTGATTCGCTTGACGCTGCTG
# Target: Interferon regulatory factor 5, full length, phosphomimetic (IRF5, Homo sapiens, UniProt Q13568-2, residues 1-514, K96S/S451D/S453D/S456D/S462D)
Sequence,log fluorescence
TCATATTCAGGTATATAACTGTGCTAG,0.524 z-score
TTCTTTTTTTCTTTTATTAGGTGCTAG,1.91 z-score
TTAGAACTGGGGTATCGAATAGTGCTA,0.541 z-score
GACGGTCTCAGACTGGAGACGTGCTAG,-0.541 z-score
TTAGGTTTCGACACTAGGTTAGTGCTA,6.01 z-score
TTGCTGAAATAATACTGTTAGTGCTAG,0.562 z-score
AGACAGAAGGGAAACAGGTTGGTGCTA,0.0905 z-score
GACGGTTTCGGGACTGGGGAAGTGCTA,4.9 z-score
GACGGTATCAGACTGGAGACGTGCTAG,-0.0981 z-score
TTAGATTTCATTTTCGATTAGTGCTAG,8.75 z-score
TTCGGTATCGGACTGGGTTAGTGCTAG,2.44 z-score
TAAGGACTGCTTATCCTTTAGTGCTAG,-0.128 z-score
GACGGATCCCTTTTCCTGACGTGCTAG,0.000465 z-score
TTAGGACTGCTTCTCCTTGAGTGCTAG,-0.332 z-score
TTAGGTTTCGGGAATCGGTTAGTGCTA,7.33 z-score
TCAACTCTGGAGGTTGAGACTGTGCTA,-0.303 z-score
TTAGGTCTCCATATCCTTTAGTGCTAG,-0.131 z-score
GACGAACTGGGGTTTCGAGTCGTGCTA,1.54 z-score

# Sample 3 — target: CCNA1, cyclin fold, Cln2 fusion (human); method: yeast growth competition, sequencing; sample: yeast; setting: weak parent motif; baseline: not given; direction: higher = stronger binding
# Starting sequence: RBL1 docking peptide (human); GSAKRRLFGEDPP
Variant,normalised enrichment score
E10C,0.631
R6H,0.47
E10A,0.368
P12S,0.688
P12F,0.517
A3L,0.45
E10V,0.256
E10W,0.478
R6E,0.55
R6C,0.459
P13G,0.454
K4V,0.375
F8M,0.13
P12R,0.665
R5P,0.224
P13V,0.741
G9T,0.641
G1K,0.458
R5N,0.303
P12D,0.339
G1V,0.849
F8T,0.225
E10M,0.52
S2C,0.716
K4G,0.436

# Sample 4 — method: RNA Bind-n-Seq; molecule type: RNA; sample: in vitro; tested at: not given; setting: RNA with constant flanks, ends assumed; baseline: input RNA pool; direction: higher = stronger binding
# Target: RING finger protein unkempt homolog, zinc fingers 1-6, GST-SBP tag (UNK, Homo sapiens, UniProt Q9C0B0, residues 30-357)
# Construct (chain): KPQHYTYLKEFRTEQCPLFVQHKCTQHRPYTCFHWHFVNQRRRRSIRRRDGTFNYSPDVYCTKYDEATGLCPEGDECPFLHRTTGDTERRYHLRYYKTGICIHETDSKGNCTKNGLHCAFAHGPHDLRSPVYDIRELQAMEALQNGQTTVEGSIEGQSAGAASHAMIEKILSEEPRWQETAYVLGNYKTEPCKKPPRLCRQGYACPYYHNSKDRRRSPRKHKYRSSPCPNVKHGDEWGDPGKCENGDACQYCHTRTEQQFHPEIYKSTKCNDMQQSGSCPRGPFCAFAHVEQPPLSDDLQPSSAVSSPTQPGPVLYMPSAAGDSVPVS
Sequence,bound/input enrichment [ratio]
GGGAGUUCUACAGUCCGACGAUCGAGACGACAAAAAGCUGUUUUUCCUUUUGUGACUCCAGAGCUGGAAAGCCUUCCCAGCUCCACCGUGUCUGUACCUGUCUUGUGCUUUGGGGUGUCCUUCAUGUGGCCAUUCUGCCUGCACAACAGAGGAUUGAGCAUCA,0.0968
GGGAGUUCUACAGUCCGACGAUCACCCACACUGAUGAGGACCCCCAGAUGUCAAUGGUUGAAGACUGUCAUGCUUCAGAGCAUAACCGCCCGAUAUCCUCCAUUCCGUCUCAUCCUAGCCAGUCAGUCCGCUCUGUCAACAGCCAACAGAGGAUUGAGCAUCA,0.205
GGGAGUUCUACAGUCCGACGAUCAUUGAACCUGUAUUUCCGGAGAACACAGAAAACUCUGAAAAAAUAUCCCUUCAGCUUCAUUCCGCUCUGACUUCAAAUUCAUCUUGGGUUCAGUGUCCCAGCCAUUUGGAACUCAUGAAUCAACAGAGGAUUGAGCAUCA,0.124
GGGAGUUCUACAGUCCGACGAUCGCAGGGCAAGAGGAUUAUGACAGAUUACGACCGCUGAGUUAUCCACAAACAGAUGUAUUUCCCGUCUGUUUUUCAGUGGUCUCUCCAUCUUCAUUUGAAAACGUGAAAGAAAAGUGGGUGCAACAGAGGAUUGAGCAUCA,0.388
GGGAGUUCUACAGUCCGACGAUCGGAAGCACAUUAAUGGAAAUAGAUGGCGAUAAAGGCAAACAAGGCGGUCCCACCUACUACACCGAUACUAAUGCUCUGCGUGUUCCGAGGGAGAAUAUGGAGGCCAUUUCACCUCUAAAACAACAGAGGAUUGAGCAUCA,0.167
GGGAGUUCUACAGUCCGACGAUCUGUGUGUGUGUGUGUGUGUGUGUGUGUGUGUGUGUGUGAGAGAGAGAGAGAGAGAGAUUUGUUUGCCGCCCGUGAAGGCUCCAGCAUGCUGGUCUGACUACAAAGGCCACCUCCCUUACACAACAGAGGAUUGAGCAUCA,0.36
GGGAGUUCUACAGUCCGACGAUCUAUUGUGAUAUGACAAGAGACUUAACUUAUCUUGCUCUGUCUUCCACUGUACACGCUGUAUACCGGGGUCAAUGUGAUGCUGCUGGAGACGAGAAUAAACUGGACUAGAAUAGUGCAUUGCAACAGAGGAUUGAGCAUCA,0.389

# Sample 5 — method: protein-binding microarray; molecule type: double-stranded DNA, one strand shown; sample: in vitro; tested at: not given; direction: higher = stronger binding
# Target: Protein C-ets-1 (ETS1, Homo sapiens, UniProt P14921, residues 1-441, K379A, full length assumed)
# Setting: k-mer, scored over probes, only values ≥0.25
# Residues (chain): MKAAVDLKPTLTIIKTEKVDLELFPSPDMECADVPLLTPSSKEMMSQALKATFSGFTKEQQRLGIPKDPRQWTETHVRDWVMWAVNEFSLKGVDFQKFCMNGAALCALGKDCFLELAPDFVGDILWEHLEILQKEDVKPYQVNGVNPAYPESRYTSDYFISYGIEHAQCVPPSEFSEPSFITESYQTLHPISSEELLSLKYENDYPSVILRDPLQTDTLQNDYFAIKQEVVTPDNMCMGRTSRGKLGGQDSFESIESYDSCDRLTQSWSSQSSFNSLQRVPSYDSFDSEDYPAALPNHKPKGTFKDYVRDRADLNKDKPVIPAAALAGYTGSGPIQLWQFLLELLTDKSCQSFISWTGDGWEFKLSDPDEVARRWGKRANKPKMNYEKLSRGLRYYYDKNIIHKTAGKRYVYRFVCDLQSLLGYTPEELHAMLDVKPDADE
Sequence,E-score
CCGGAAAC,0.437
ACAACGGA,0.28
CTATTGTA,0.262
ACTGTCGG,0.273
TTTACAAA,0.256
CCGGGGTA,0.299
GACACACC,0.254
AACCGTCG,0.326
AGCCGGAT,0.262
CAATAACC,0.262
GCCGGTGA,0.331
AAGACCGG,0.418
ACCGGAGC,0.341
CCGGAACG,0.408
GTCGGATA,0.326
CGGCACCG,0.263
AGGACCGG,0.397
ACGCCACA,0.279

# Sample 6 — method: RNA Bind-n-Seq; molecule type: RNA; sample: in vitro; tested at: 365 nM; baseline: no-protein control; direction: higher = stronger binding
# Target: RNA binding protein fox-1 homolog 2, RRM domain, GST-SBP tag (RBFOX2, Homo sapiens, UniProt O43251-10, residues 100-194)
# Setting: natural RNA segment, single round, ends assumed
# Construct (chain): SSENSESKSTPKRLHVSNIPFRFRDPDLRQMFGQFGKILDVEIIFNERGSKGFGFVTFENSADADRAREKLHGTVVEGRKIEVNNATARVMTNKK
Sequence,RBNS enrichment (R)
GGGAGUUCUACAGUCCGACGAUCAGCAAACUCAACCAAGAACUGCUCAUUCAGACUCGUGAAACGACCCAGAGAGGGCUCAGAAACGGCCCAGGAAGGCCCAGGGCCUUCCUGGCGUGAUUGACGAUCUGAGUUGGAAUUCUCGGGUGCCAA,0.212
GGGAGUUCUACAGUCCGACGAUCCUUUCCUGGGCUUUGCUUUCUUAACUCCCACCAUCCAGGCCUCCUCUAGAGUCCACUGAGUCACAAUGGGGGCACAUGCUCAUGACUGUGUCACUUAGGGGCGGUCCCCAUGGAAUUCUCGGGUGCCAA,0.45
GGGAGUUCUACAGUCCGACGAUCCGGCCCUGCUCGAUGCAGGGUCUGCAGUGGCCUGAGGGCAGCCAGGCACUGCAUGCCUGUCUCCUUAUGAGGAAGGCUGCAAAUUUCAGAGAAAGGGAGGUGAGGUUUCCUGGAAUUCUCGGGUGCCAA,0.453
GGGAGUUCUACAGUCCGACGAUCCAGUGUGCACCGGUCACUACAUUCAGGCUAUUUGAGGUUUUCAUAUGCUGCAUUUCUUUGUUUUUAACACCUGGUUUUAUAGGUUCUCUUUCGUUUGUUAAGAAACUGGAUGGAAUUCUCGGGUGCCAA,0.709
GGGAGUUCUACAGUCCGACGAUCCCCUUCCAAACAAAAAAGGCAAAGUUGUCCUAAGGUGAUCUCACUGUUGUGAAUGCCCAGUUGUAUUUUUAUAAGGUUGUAUAUAUGGGGAAAAAAAGUAUCGGUGAGUUUGGAAUUCUCGGGUGCCAA,1.11
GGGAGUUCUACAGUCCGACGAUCUUGACUGCACUGUGGGUGAGUGUUCUGAGCUCCCAAUAUUGUACAGCAUCGUAAAUUAUCCAAGGAAGAUAUGGCAGGCCAAGCUGGUGCUGACCGCUGGUUUGAUUUUCUGGAAUUCUCGGGUGCCAA,5.64
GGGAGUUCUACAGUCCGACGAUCUUAUCAAAUCCUUCUCUCCCAAGCCAUUUAAAAACGUUUUUUAAGUGAAAAGUUUGUAUUCUGCCUCUAAAGUUCCUCAACAAAUACUCGAGUUACACAUAUGCAUAUGUUGGAAUUCUCGGGUGCCAA,2.09
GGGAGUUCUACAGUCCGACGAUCUGGUGGGGAGGCCACAGGAAGGCCCAACCUGCACGGCAGGACCCCCCUGCAUGGCAGGACCCCUGUGCUUCAGUUCUAAUAAAUCUGAAUUUGGCUGUGCAAAGUCCCCUUGGAAUUCUCGGGUGCCAA,0.277
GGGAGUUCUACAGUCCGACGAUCCAAGGUGCUGCUGCUUGCCCAAAUGUUUUCCCAUGGGAUAUGUACCGGAAGGUUUAUCACCACCCUGGGAAACAUAAUGCUGCCCCUUGGGCCCAGAAAGGGGUUUCCAGUGGAAUUCUCGGGUGCCAA,1.41
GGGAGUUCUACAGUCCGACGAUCUGCUGCGAUGGCCUCAAGGCCUCUCCAGUCCCCUGCUGCACCAUGCCACUCAGAGCCCCUGAGUGAGCCCCCUGGAAUUGUCUGCACCCCCCAAGCCCCAACAGGAAGAAUGGAAUUCUCGGGUGCCAA,0.723
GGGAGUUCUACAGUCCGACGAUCCUAUUGAAUGUCAAAGACUUACUGGGUCUUUACACCUCUGUAAAGUGGAGGUUUUGGCAAUGAGCUGUUUAACUUGGCCAAGCUAGGCUGUCAACCCAGACAACUCAGUCUGGAAUUCUCGGGUGCCAA,0.271
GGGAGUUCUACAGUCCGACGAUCCAGUUUUACAUGUAGGUCAUGACUAUACCUGGAUUUUAUCAUUAAGUUAACUUUAAAGUAUAUACAGUUUGCAAAAAAUGAUUCAAAUUAAUUGGUUUGUAUAUGUUUGUUGGAAUUCUCGGGUGCCAA,0.696

# A few entries again (sample 5):
Sequence,E-score
TTTACAAA,0.256
CCGGGGTA,0.299
GACACACC,0.254
AACCGTCG,0.326
AGCCGGAT,0.262
CAATAACC,0.262
GCCGGTGA,0.331
AAGACCGG,0.418
ACCGGAGC,0.341
CCGGAACG,0.408
GTCGGATA,0.326
